Published values of several laboratories.
Each numbered part is a random draw from the data of one study; scales do not carry over between parts. Changes are numbered by the printed parent chain.

Sample 1
Target: CCND3, cyclin fold, Cln2 fusion (human)
Technique: yeast growth competition, sequencing
Medium: yeast
Setting: strong parent motif
Reference: not given
Direction: higher = stronger binding
Parent: INSM1 docking peptide (human); PKAIRKLHFEDEV; partner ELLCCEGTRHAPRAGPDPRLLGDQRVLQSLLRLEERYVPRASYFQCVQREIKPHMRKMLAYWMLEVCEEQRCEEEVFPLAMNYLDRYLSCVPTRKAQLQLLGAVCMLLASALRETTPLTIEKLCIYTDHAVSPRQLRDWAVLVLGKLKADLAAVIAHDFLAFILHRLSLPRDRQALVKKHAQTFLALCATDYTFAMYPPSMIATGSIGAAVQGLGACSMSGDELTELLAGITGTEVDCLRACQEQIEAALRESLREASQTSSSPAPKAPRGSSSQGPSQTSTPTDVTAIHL
Substitution	normalised enrichment score
PKHIRKLHFEDEV [A3H]	0.216
PKKIRKLHFEDEV [A3K]	0.573
PKMIRKLHFEDEV [A3M]	0.415
PSAIRKLHFEDEV [K2S]	2
PPAIRKLHFEDEV [K2P]	0.607
PQAIRKLHFEDEV [K2Q]	0.757
PKAIRQLHFEDEV [K6Q]	1.05
PKAIRELHFEDEV [K6E]	0.624
PKACRKLHFEDEV [I4C]	2.06
PKAIGKLHFEDEV [R5G]	0.0537
PKAIRKLIFEDEV [H8I]	1.88
PKAIWKLHFEDEV [R5W]	0.422
PKAIRKLHFEEEV [D11E]	1.28
PKAIRKPHFEDEV [L7P]	0.234
PHAIRKLHFEDEV [K2H]	1.27
PKAIRILHFEDEV [K6I]	0.665
PKAIRKLHFLDEV [E10L]	0.369
PKAIRKYHFEDEV [L7Y]	0.0456
PKAIRKLHFEAEV [D11A]	0.519
PKAIRKLHFVDEV [E10V]	0.707
PIAIRKLHFEDEV [K2I]	0.555
PKAIRKIHFEDEV [L7I]	1.1
PKAIRKLHFEDRV [E12R]	0.698
PKAIRKLHVEDEV [F9V]	0.211
PKAIRKFHFEDEV [L7F]	-0.179

Sample 2
Target: Fragile X messenger ribonucleoprotein 1, C-terminal low-complexity region (Fmr1, Mus musculus, UniProt P35922)
Technique: RNA Bind-n-Seq
Molecule type: RNA
Medium: in vitro
Concentration: 200 nM
Setting: whole 134-nt RNA, ends assumed
With: 150 mM LiCl
Reference: input library
Direction: higher = stronger binding
Each molecule: 7-deaza-guanosine replaces G
All sequences stand within: GGGAGUUCUACAGUCCGACGAUC … UGGAAUUCUCGGGUGUCAAGG
Oligonucleotide	log2 enrichment
UCCUGUGCUACACAUCGUAUGUACCGAAUCGGUUUUUUGGGGUUUUUUGGUUUUUUGGGAAAGUAUUAUGUUACGCCGUUCGGAUCUGCA	-0.154
CACAGACAAUACGCACCCACACAGACACAGAGGGAAGGGGUUGGGAUGGGGACAGGGUGCACAGCAGGGCGGGGUAGGACCCCAGCCCCU	0.492
AGUCCUGUGCUACACAUCGUAUGUACCGAAUCGGGGUUUGGGGUUUUUGGGGAGGGGAAAGUAUUAUGUUACGCCGUUCGGAUCUGCACU	-0.235
AGUCCUGUGCUACACAUCGUAUGUACCGAAUCGGGAAAAGGAAAAGGGGAAAAGGGGAAAGUAUUAUGUUACGCCGUUCGGAUCUGCACU	-0.678
UCAAGUCCUGUGCUACACAUCGUAUGUACCGAAUCGUGUGUGUGUGUGUGUGUGAAAGUAUUAUGUUACGCCGUUCGGAUCUGCACUUCC	-0.827
GCAGGAAGUAAAAACAAAUGGAAAUGCUUCGGAUAGUGGCAGGGGUGGGGGUUGCUAAGGAAAGGGUUGGAUGGGAGUGGGUAAAGAGUU	1.31
UCCUGUGCUACACAUCGUAUGUACCGAAUCGGGGAAAAAAGGGAAAAAAGGAAAAAAGGGAAAGUAUUAUGUUACGCCGUUCGGAUCUGC	0.26
UCAAGUCCUGUGCUACACAUCGUAUGUACCGAAUCGGUUUGGUUUGGAAAAAGGAAAGUAUUAUGUUACGCCGUUCGGAUCUGCACUUCC	-1.03
UGAAUGCUGAGAAUGUUGCUGGUCACCAGAUUGCCUCUGAAACACAGAUCCUUGAGGGCUCUUUGGGAAUAUCUGUAAAGUCACACUGCA	0.164
UCCUGUGCUACACAUCGUAUGUACCGAAUCGGGGCCCCCGGGGCCCCCGGGGCCCCCGGAAAGUAUUAUGUUACGCCGUUCGGAUCUGCA	0.955
AAGUCCUGUGCUACACAUCGUAUGUACCGAAUCGGGUUUUUUUGGGAAAGGGAGGGAAAGUAUUAUGUUACGCCGUUCGGAUCUGCACUU	-0.743

Sample 3
Target: ABI1, truncated, D143A, DHFR fusion (Arabidopsis thaliana)
Technique: DHFR PCA, deep sequencing
Medium: yeast
Setting: methotrexate growth selection, single substitutions
With: (+)-ABA 1.4 µM
Reference: wild-type fitted maximum
Direction: higher = stronger binding
Parent: PYL1, truncated, DHFR fusion (Arabidopsis thaliana); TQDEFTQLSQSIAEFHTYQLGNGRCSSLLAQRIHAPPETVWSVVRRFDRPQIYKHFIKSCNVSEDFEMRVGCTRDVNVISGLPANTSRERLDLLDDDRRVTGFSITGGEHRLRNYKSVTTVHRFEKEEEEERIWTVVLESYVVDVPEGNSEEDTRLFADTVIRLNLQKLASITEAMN
Substitution	relative binding score [%]
H110E	17
V70W	1.72
R69C	51.1
D3I	24.4
T6Q	68.5
G21W	8.35
E67I	50.1
F15E	2.29
E174A	11
I162N	0.00821
K58W	5.59

Sample 4
Target: Prothrombin, mature alpha-thrombin (F2, Homo sapiens, UniProt P00734)
Technique: aptamer microarray, sandwich
Molecule type: DNA with 2'F-ANA
Medium: in vitro
Concentration: 200 nM
Setting: whole 15-mer aptamer, many near background
With: Cy3 exosite-II aptamer, 400 nM
Direction: higher = stronger binding
Oligonucleotide: GGTTGGTGTGGTTGG
Modification	mean fluorescence intensity [a.u.]
2'F-ANA at 6 10 12	213
2'F-ANA at 2 3 4 5 6 7 8 9 10 12	59.5
2'F-ANA at 1 3 6 12 13 14 15	123
2'F-ANA at 2 3 5 8 9 11 15	84.4
2'F-ANA at 3 5 9 10 11 13 14	51.2
2'F-ANA at 1 2 4 6 7 8 9 11 13 15	122
2'F-ANA at 4 7 8 15	422
2'F-ANA at 1 2 4 8 9 11 12	219
2'F-ANA at 1 2 3 4 11 12 13 15	240
2'F-ANA at 3 5 6 11 12 13 14	57.6
2'F-ANA at 1 3 4 6 7 10 13 14 15	57.8
2'F-ANA at 4 8 10 14 15	63.7
2'F-ANA at 4 5 7 9 13 14 15	47.7
2'F-ANA at 8 9 10 14	110
2'F-ANA at 2 3 4 5 6 8 9 10 12 13 15	54.8
2'F-ANA at 1 2 4 5 7 9 12 13	72.1
2'F-ANA at 2 5 6 7 11 13 15	147
2'F-ANA at 1 3 5 7 9 10 11 13 14 15	45.5
2'F-ANA at 1 2 3 5 7 8 9 10 14	48.5
2'F-ANA at 2 3 4 5 6 7 11 13 14 15	48.9
2'F-ANA at 1 3 4 5 6 7 8 11 13 14 15	45.8
2'F-ANA at 5 8 9 11 12 14 15	47
2'F-ANA at 3 5 6 8 9 10 11 13 14	54.2
2'F-ANA at 1 2 5 6 7 10 11	47.3
2'F-ANA at 1 2 7 10 11 14 15	70

Sample 5
Target: CREB3L4, bZIP domain (human)
Technique: DHFR protein complementation
Medium: yeast
Setting: single substitutions, most at no-binding floor
Reference: wild-type JUN-FOS pair
Direction: higher = stronger binding
Parent: JUN, bZIP domain (human); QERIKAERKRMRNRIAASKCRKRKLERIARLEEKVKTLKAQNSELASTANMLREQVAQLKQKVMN; partner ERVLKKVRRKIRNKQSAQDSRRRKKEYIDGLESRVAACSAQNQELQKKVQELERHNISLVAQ
Substitution	binding fitness [natural log]
Q55D	-1.5
Q55E	-1.55
E33A	-1.55
E54H	-1.62
A29G	-1.43
T48K	-1.35
L38D	-1.43
E44G	-1.53
E44T	-1.44
T48A	-1.35
Q55R	-1.53
E32P	-1.5
L52T	-1.57
M51F	-1.5
K34E	-1.31
E32R	-1.44
E54W	-1.46
A46D	-1.23
L38N	-1.5
E44L	-1.39
T37R	-1.38
L59G	-1.46
